Measured values from different studies.
A part holds a random share of what one study measured. Substitutions count along the parent as printed.

Set 1
Target: RNA binding protein fox-1 homolog 2, RRM domain, GST-SBP tag (RBFOX2, Homo sapiens, UniProt O43251-10, residues 100-194)
Method: RNA Bind-n-Seq
Molecule type: RNA
Sample: in vitro
Tested at: 365 nM
Notes: natural RNA segment, single round, ends assumed
Baseline: no-protein control
Reading: higher = stronger binding
Shared flanks, not repeated: GGGAGUUCUACAGUCCGACGAUC … UGGAAUUCUCGGGUGCCAA
Target sequence (chain): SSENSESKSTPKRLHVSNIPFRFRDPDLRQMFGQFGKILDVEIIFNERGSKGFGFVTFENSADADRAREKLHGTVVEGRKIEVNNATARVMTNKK
| Oligonucleotide | RBNS enrichment (R) |
| --- | --- |
| UGCACCAGGUCUCAAGGUUCUCAUUUCUCAGGUGACGUGAUUCUAAGGCAGGAAUUUGAGAGUUCACAGAAGGAUCGUGUCUGCUGACUGUUUCAUUCACUGUGCACUUU | 0.569 |
| AAGCUGUCUCUCUGACACCAGUGGUAAAAAAGCAAGUAGAAUAGUUUCUGAGUCUGUGUUGCAGCCUCUGACACGUGGCUCACCGCUGUCAUUUGGGGGAUGGAAUGAAC | 0.548 |
| UCAUUUUUAAAAAAAGAUGAAGCAUUUCAAAAUCUUGUUAACCUGGUUAUCUCUUGGUAUCUCUCCUGACAUAUUUGUUUUGCUUUAAAUUGGAUUAAAUGGUUUACAGG | 0.43 |
| GUUUUUUAAAGAGAAACAGAACCAGACUCCUUUCCCGGCCCUCCAAACAUGUAUUCUGUGCGAUAACUUGUGCCUGCGACAAGUGUUAAUCUUGGGAUCGUAUUUUUAUA | 1.19 |
| AGAAACUUAAGUAAAUAUGGCUUACACCCUAACACUGGGGUGGUUUUCUUUUCUAAUGUAGCUUUCCCUGUUGAGGCUAUUGUUUCUUCUUAAUUUAUAUUAUAUUUUAA | 0.544 |
| GUGGAGAGAAGGCAACCCCAGAUCCCCUGAGCUAACCCGGAGGAAAGGCAGUCCUGGACAGAAGACUGUCAGCAGAAGGAAAGUACUGGACUACCCGUGGGUAAGUCCUG | 0.365 |
| CAGUGAGAACCACUGAUUUUUUCCACUGACCUACUGAAUAUCUAGCAUCCUUAGAUUGGCUCAACUGUUACUUUCCUAAGGAGUCCUUCUACAGAAUAGGUCAGAUCUUG | 0.499 |
| AGAAACUGGGCUCAUCACACCAAGGCAAAGCAACGGGCGAGUCUUCCUCCUUGUCCUAGUUACUGCCUAUGGAGGCAGUGUUUAGAUCAAGAAGGCCUCUCUUGCUCCCA | 0.286 |
| UGUGUGUGUGUGUACUCUGUGUGUGUAUGAGAGAGAGAAAUGCUAACCUUGUAGCAUGUGAAGAAUGUCUGUACCUUGAUACGAUAGUUACAUAAUCAGUAUAUUUGGUU | 18.2 |
| AAGGCUGCACUCUAGGCUGAACCAUGCUAAAAGCCCAUGCUUAAAUAAAAAAUUAUGUCCAAAAUCUUCUGCAGCUUGCUUAUAUUCGCUCAGUUUUUACUGUGUGUGUG | 0.714 |
| CAGCCCUUCAAGUUCUUUUAUUUCUGGGUAACAGAAGUAGACAGACAGGUUACUUGGUGUAUCUUCUGUUAAAGAGGAUUGCACGAGUGUGUUUUCCUCACACACUUUGA | 0.313 |
| UCCUUUUGAAUUACUGGGCAGGGAGGUGAGUGGAUGACUUAAUGAUUUCAUGAAUGAAAUAAAGAUUUGUUAGUGGGAAGCAAAUAAAACACAUUAAGUUGAUUGAGUUG | 1.7 |

Set 2
Target: Ras GTPase-activating protein-binding protein 1, RRM domain (G3BP1, Homo sapiens, UniProt Q13283)
UniProt Q13283, sequence (whole entry, looked up): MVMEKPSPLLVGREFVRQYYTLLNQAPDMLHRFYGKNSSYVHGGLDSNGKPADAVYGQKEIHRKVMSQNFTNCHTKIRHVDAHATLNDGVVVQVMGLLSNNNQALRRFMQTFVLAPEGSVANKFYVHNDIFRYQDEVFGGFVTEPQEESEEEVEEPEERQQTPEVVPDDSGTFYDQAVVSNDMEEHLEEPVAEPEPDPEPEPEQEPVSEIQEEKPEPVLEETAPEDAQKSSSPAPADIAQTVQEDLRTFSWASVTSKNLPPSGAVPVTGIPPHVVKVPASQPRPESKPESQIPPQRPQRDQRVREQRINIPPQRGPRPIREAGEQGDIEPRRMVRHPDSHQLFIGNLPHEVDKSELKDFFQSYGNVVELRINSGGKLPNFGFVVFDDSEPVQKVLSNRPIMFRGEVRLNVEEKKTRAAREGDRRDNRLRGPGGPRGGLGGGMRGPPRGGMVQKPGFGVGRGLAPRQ
Method: RNA Bind-n-Seq
Molecule type: RNA
Sample: in vitro
Tested at: 1 µM
Notes: whole 134-nt RNA, ends assumed
Added: 150 mM KCl
Baseline: input library
Reading: higher = stronger binding
Shared flanks, not repeated: GGGAGUUCUACAGUCCGACGAUC … UGGAAUUCUCGGGUGUCAAGG
| Oligonucleotide | log2 enrichment |
| --- | --- |
| GCAGGAAGUAAAAACAAAUGGAAAAACUUCGGAUAGUGGCAGGGGUGGGGGUUGCUAAGGAAAGGGUGGGAUGGGAGUGGGUAAAGAGUU | 1.21 |
| CCUGUGCUACACAUCGUAUGUACCGAAUCGGGAAAAAAGGGAAAAAAGGGAAAAAAGGGGAAAGUAUUAUGUUACGCCGUUCGGAUCUGC | 0.0083 |
| UGGCCCUGGUGGCAUGCGGGGAGGAAGAGGUGGCCUCAUGGAUCGUGGGGGUCCCGGUGGAAUGUUCAGAGGUGGCCGUGGUGGAGACAG | 0.524 |
| UCCUGUGCUACACAUCGUAUGUACCGAAUCGGGGAAAGGGGAAAAAGGGGAAAAAGGGGAAAGUAUUAUGUUACGCCGUUCGGAUCUGCA | 0.94 |
| UGGCCCUGGUGGCAUGCGGGGAGGAAGAGGUGGCCUCAUGGAUCGUGGUGGUCCCGUUGGAAUGUUCAGAGGUGGCCGUGGUGGAGACAG | 0.89 |
| UAUCUUUAGAGGAGGAUCUGAUGGAUAUGGCAGUGGACGUGGAUUUGGGGAUGGCUAUAAUGGGUAUGGAGGAGGACCUGGAGGUGGCAA | -0.79 |
| GUCCUGUGCUACACAUCGUAUGUACCGAAUCGGAAAAAAGGGAAAAAAGGGAAAAAAGGAAAGUAUUAUGUUACGCCGUUCGGAUCUGCA | 0.135 |
| ACCAUGAAGGUGGGCAUCUUUGGGAAGUGGGGCAAGGGGGGGAUAGGGAGGGGGGUAACACUUUGGGAACAGGUGGUCCCAGGUCGUUUC | -0.533 |
| CCUCAAGUCCUGUGCUACACAUCGUAUGUACCGAAUCGGGAGGGAGGAGGGGAAAGUAUUAUGUUACGCCGUUCGGAUCUGCACUUCCAG | 0.29 |
| CUGUGCUACACAUCGUAUGUACCGAAUCGGGGAAAAAAAGGGGAAAAAGGGGAAAAAGGGGAAAGUAUUAUGUUACGCCGUUCGGAUCUG | 0.766 |
| CACAGACAACACGCACCCACACAGACACAGAGGGAAGGGGUUGGGAUGGGGACAGGGUGCAAAACAGGGCGGGGUAGGACCCCAGCCCCU | -0.129 |
| UGGGAGGUGGAUUUUGUUUAUUUUUUUAGCUCAUUUCCAGGGGUGGGAAUUUUUUUUUAAUAUGUGUCAUGAGUAAAGUUGUUUUUGAAA | 1.35 |
| GUCCUGUGCUACACAUCGUAUGUACCGAAUCGGGGUUUUUGGGGUGGGGAAAAAGGGGAAAGUAUUAUGUUACGCCGUUCGGAUCUGCAC | 0.981 |
| UAACUUUAGAGGAGGAUCUGAUGGAUAUGGCAGUGGACGUGGAUUUGGGGAUAGCUAUAAUGGGUAUGGAGGAGGACCUGGAGGUGGCAA | -0.256 |

Set 3
Target: CREB3L2, bZIP domain (human)
Method: DHFR protein complementation
Sample: yeast
Notes: single substitutions, most at no-binding floor
Baseline: wild-type JUN-FOS pair
Reading: higher = stronger binding
Starting sequence: JUN, bZIP domain (human); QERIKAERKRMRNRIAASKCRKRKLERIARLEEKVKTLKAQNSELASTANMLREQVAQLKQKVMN; partner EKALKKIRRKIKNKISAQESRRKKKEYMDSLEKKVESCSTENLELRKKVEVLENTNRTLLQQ
| Substitution | binding fitness [natural log] |
| --- | --- |
| S47N | -1.5 |
| A40R | -1.51 |
| L52M | -1.52 |
| E44T | -1.56 |
| A49Q | -1.55 |
| A40F | -1.52 |
| R30F | -1.2 |
| L45T | -1.58 |
| N42L | -1.53 |
| S43F | -1.49 |
| N42G | -1.47 |
| R53W | -1.53 |
| A46P | -1.52 |
| K36W | -1.52 |

Set 4
Target: ABI1, truncated, D143A, DHFR fusion (Arabidopsis thaliana, UniProt P49597)
Method: DHFR PCA, dose-response
Sample: yeast
Notes: Hill fit, not affinity, not high confidence
Added: (+)-ABA, dose series
Reading: lower = more sensitive
Starting sequence: PYL1, truncated, DHFR fusion (Arabidopsis thaliana, UniProt Q8VZS8); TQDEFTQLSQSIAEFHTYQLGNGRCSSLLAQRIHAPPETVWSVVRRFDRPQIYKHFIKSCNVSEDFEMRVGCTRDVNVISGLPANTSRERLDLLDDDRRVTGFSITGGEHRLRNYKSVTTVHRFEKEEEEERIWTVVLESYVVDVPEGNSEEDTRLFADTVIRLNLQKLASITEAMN
| Substitution | ABA EC50 [µM] |
| --- | --- |
| R74M | 0.377 |
| H122P | 755 |
| T154I | 48.2 |
| V43D | 0.532 |
| S140P | 0.014 |
| L112P | 101 |
| S80I | 25.5 |
| L169I | 182 |
| A158R | 15 |
| L166Y | 716 |
| D159I | 1730 |
| Y141G | 17.2 |
| A84V | 246 |
| A35F | 636 |
| V121S | 1730 |
| R45D | 7.7 |
| H16E | 1050 |

Set 5
Target: CCNE1, cyclin fold, Cln2 fusion (human)
Method: yeast growth competition, sequencing
Sample: yeast
Notes: strong parent motif
Baseline: not given
Reading: higher = stronger binding
Starting sequence: CDKN1B docking peptide (human); PSACRNLFGPVDH; partner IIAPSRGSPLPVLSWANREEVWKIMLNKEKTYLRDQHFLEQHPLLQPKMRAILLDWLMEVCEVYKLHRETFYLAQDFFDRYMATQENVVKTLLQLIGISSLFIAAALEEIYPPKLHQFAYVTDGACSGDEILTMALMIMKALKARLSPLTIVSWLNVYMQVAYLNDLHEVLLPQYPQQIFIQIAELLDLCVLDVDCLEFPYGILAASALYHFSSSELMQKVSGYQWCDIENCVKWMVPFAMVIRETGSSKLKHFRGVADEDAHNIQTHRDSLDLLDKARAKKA
| Substitution | normalised enrichment score |
| --- | --- |
| PSACRNLFGYVDH [P10Y] | 3.15 |
| PSACCNLFGPVDH [R5C] | -0.117 |
| PRACRNLFGPVDH [S2R] | 2.9 |
| PGACRNLFGPVDH [S2G] | 2.69 |
| PSALRNLFGPVDH [C4L] | 1.14 |
| PSAFRNLFGPVDH [C4F] | 0.976 |
| PSACRFLFGPVDH [N6F] | 0.592 |
| PSACHNLFGPVDH [R5H] | 0.276 |
| PSACRNLFGPVDL [H13L] | 3.24 |
| PSACRNLFNPVDH [G9N] | 1.2 |
| PSACRNLNGPVDH [F8N] | 0.261 |
| PSACRNLFCPVDH [G9C] | 0.868 |
| PSACRNLFGPVDD [H13D] | 2.77 |
| PSACRNLFGPVDV [H13V] | 2.79 |
| PSAVRNLFGPVDH [C4V] | 3.15 |
| PSADRNLFGPVDH [C4D] | 0.385 |
| PSACRNLFGPVIH [D12I] | 2.43 |
| NSACRNLFGPVDH [P1N] | 4.16 |
| PSACRRLFGPVDH [N6R] | 4.54 |
| PSACRNLGGPVDH [F8G] | -0.364 |
| PSACRSLFGPVDH [N6S] | 1.42 |
| DSACRNLFGPVDH [P1D] | 2.31 |
| PSWCRNLFGPVDH [A3W] | 3.09 |
| PSASRNLFGPVDH [C4S] | 0.774 |
| PSACRNDFGPVDH [L7D] | 0.44 |

For quick reference, copied from above (set 2):
| Oligonucleotide | log2 enrichment |
| --- | --- |
| CCUGUGCUACACAUCGUAUGUACCGAAUCGGGAAAAAAGGGAAAAAAGGGAAAAAAGGGGAAAGUAUUAUGUUACGCCGUUCGGAUCUGC | 0.0083 |
| CCUCAAGUCCUGUGCUACACAUCGUAUGUACCGAAUCGGGAGGGAGGAGGGGAAAGUAUUAUGUUACGCCGUUCGGAUCUGCACUUCCAG | 0.29 |
| UGGGAGGUGGAUUUUGUUUAUUUUUUUAGCUCAUUUCCAGGGGUGGGAAUUUUUUUUUAAUAUGUGUCAUGAGUAAAGUUGUUUUUGAAA | 1.35 |
| UAUCUUUAGAGGAGGAUCUGAUGGAUAUGGCAGUGGACGUGGAUUUGGGGAUGGCUAUAAUGGGUAUGGAGGAGGACCUGGAGGUGGCAA | -0.79 |
| UCCUGUGCUACACAUCGUAUGUACCGAAUCGGGGAAAGGGGAAAAAGGGGAAAAAGGGGAAAGUAUUAUGUUACGCCGUUCGGAUCUGCA | 0.94 |
| CUGUGCUACACAUCGUAUGUACCGAAUCGGGGAAAAAAAGGGGAAAAAGGGGAAAAAGGGGAAAGUAUUAUGUUACGCCGUUCGGAUCUG | 0.766 |
| GUCCUGUGCUACACAUCGUAUGUACCGAAUCGGGGUUUUUGGGGUGGGGAAAAAGGGGAAAGUAUUAUGUUACGCCGUUCGGAUCUGCAC | 0.981 |
| UGGCCCUGGUGGCAUGCGGGGAGGAAGAGGUGGCCUCAUGGAUCGUGGUGGUCCCGUUGGAAUGUUCAGAGGUGGCCGUGGUGGAGACAG | 0.89 |
| UAACUUUAGAGGAGGAUCUGAUGGAUAUGGCAGUGGACGUGGAUUUGGGGAUAGCUAUAAUGGGUAUGGAGGAGGACCUGGAGGUGGCAA | -0.256 |
| GUCCUGUGCUACACAUCGUAUGUACCGAAUCGGAAAAAAGGGAAAAAAGGGAAAAAAGGAAAGUAUUAUGUUACGCCGUUCGGAUCUGCA | 0.135 |
| UGGCCCUGGUGGCAUGCGGGGAGGAAGAGGUGGCCUCAUGGAUCGUGGGGGUCCCGGUGGAAUGUUCAGAGGUGGCCGUGGUGGAGACAG | 0.524 |
